Published values gathered from unrelated publications.
Numbered parts are unrelated; each lists some results of a single study.
UniProt O14936, sequence (whole entry, looked up): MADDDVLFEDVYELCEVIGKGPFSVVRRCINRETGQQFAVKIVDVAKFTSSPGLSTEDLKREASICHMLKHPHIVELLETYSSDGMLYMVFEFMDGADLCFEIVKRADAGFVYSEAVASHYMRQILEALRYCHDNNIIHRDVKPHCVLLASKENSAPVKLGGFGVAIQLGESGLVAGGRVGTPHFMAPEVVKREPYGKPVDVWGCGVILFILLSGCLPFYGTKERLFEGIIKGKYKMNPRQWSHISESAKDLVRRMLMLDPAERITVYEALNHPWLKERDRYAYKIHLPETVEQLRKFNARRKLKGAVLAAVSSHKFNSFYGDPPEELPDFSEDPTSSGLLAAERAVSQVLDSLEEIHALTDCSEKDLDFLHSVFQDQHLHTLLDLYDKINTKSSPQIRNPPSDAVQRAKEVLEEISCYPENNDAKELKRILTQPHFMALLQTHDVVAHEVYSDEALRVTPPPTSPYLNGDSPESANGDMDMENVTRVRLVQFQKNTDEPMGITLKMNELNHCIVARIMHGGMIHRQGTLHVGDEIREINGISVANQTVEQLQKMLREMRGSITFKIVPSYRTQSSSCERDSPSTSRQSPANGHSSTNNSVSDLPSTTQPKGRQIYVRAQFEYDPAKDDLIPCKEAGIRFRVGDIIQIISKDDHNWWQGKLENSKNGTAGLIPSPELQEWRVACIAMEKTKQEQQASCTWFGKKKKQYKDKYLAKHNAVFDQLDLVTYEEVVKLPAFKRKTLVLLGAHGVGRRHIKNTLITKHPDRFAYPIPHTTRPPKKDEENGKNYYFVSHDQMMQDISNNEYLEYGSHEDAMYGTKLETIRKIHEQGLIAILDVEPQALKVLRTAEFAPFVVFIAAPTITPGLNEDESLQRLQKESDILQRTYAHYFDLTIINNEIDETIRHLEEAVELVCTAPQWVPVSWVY
UniProt P54762, sequence (whole entry, looked up): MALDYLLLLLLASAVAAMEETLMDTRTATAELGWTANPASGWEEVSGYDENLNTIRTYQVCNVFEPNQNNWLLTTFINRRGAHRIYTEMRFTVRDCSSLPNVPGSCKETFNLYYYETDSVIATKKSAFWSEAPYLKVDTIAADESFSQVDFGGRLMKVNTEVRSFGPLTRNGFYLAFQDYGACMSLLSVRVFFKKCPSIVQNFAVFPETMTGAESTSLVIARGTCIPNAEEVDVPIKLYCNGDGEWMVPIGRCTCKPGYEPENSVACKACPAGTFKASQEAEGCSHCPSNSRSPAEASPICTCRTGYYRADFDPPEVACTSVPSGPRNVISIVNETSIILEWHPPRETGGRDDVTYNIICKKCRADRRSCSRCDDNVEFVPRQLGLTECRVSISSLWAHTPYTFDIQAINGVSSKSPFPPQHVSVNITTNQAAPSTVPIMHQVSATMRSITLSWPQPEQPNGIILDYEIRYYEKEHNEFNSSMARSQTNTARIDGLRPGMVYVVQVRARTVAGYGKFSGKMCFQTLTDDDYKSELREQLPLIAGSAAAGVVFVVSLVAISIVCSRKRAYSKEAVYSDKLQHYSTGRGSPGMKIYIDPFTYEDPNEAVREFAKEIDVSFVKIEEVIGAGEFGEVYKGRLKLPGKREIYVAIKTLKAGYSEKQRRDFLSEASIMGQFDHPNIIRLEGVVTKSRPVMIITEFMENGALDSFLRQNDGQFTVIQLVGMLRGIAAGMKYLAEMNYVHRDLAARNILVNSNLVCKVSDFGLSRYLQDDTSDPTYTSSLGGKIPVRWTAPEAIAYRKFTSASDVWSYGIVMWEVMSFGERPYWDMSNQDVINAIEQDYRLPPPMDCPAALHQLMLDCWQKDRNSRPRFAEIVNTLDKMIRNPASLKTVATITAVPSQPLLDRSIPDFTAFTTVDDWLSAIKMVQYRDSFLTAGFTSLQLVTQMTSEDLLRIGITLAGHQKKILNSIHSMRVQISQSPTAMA
UniProt Q9HAZ1, sequence (whole entry, looked up): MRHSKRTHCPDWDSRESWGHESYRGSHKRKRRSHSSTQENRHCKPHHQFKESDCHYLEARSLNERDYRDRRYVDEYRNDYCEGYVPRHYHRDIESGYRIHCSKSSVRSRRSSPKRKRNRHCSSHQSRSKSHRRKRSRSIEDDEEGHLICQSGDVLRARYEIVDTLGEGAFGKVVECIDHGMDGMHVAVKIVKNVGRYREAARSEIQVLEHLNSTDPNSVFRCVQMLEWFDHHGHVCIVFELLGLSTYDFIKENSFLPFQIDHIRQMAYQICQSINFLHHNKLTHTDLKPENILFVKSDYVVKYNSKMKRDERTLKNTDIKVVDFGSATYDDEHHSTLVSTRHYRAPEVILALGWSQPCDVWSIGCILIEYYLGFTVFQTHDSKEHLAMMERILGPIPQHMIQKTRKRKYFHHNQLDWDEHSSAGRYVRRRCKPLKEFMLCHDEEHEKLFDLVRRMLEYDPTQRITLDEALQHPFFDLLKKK
UniProt Q6P3R8, sequence (whole entry, looked up): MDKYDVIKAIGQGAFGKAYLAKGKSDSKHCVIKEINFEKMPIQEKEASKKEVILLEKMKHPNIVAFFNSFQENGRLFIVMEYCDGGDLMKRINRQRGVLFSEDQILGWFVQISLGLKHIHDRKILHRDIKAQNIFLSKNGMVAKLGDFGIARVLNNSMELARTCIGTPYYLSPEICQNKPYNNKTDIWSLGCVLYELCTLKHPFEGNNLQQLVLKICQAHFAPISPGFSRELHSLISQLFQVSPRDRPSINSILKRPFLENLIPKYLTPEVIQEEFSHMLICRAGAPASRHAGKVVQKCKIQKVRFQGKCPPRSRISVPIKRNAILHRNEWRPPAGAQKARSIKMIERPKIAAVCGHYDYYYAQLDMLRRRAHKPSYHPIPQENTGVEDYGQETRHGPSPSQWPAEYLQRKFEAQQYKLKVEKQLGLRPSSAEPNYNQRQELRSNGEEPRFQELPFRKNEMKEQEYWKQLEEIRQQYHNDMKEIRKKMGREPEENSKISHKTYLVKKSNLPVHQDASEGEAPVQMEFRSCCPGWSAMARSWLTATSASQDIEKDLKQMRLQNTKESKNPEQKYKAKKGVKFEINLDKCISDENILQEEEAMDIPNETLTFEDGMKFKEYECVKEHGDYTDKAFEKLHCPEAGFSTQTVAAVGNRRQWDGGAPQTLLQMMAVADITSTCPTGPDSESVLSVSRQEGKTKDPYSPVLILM
UniProt Q8TD19, sequence (whole entry, looked up): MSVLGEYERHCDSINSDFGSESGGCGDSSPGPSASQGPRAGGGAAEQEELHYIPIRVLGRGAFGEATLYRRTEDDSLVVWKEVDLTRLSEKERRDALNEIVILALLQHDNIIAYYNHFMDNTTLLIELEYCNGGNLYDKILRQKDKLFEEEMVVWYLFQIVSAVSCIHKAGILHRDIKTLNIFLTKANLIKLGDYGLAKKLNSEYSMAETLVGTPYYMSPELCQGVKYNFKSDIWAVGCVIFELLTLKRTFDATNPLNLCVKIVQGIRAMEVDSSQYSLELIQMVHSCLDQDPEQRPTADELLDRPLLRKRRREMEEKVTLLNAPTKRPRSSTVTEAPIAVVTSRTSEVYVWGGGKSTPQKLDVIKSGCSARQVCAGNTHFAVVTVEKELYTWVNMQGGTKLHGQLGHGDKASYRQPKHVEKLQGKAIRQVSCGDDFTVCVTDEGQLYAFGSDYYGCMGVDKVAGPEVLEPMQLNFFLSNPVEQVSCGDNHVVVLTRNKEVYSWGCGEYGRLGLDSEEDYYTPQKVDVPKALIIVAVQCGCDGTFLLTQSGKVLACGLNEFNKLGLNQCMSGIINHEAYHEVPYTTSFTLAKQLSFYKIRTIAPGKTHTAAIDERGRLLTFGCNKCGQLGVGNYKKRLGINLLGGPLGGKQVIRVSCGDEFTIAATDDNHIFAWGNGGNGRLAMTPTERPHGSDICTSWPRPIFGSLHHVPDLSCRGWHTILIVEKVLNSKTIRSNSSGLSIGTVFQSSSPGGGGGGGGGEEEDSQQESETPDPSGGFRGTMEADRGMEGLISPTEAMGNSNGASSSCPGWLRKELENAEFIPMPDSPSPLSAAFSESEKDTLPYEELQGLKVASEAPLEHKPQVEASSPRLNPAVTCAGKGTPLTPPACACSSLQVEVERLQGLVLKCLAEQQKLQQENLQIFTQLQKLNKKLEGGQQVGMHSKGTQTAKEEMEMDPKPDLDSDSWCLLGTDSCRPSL
UniProt P43403, sequence (whole entry, looked up): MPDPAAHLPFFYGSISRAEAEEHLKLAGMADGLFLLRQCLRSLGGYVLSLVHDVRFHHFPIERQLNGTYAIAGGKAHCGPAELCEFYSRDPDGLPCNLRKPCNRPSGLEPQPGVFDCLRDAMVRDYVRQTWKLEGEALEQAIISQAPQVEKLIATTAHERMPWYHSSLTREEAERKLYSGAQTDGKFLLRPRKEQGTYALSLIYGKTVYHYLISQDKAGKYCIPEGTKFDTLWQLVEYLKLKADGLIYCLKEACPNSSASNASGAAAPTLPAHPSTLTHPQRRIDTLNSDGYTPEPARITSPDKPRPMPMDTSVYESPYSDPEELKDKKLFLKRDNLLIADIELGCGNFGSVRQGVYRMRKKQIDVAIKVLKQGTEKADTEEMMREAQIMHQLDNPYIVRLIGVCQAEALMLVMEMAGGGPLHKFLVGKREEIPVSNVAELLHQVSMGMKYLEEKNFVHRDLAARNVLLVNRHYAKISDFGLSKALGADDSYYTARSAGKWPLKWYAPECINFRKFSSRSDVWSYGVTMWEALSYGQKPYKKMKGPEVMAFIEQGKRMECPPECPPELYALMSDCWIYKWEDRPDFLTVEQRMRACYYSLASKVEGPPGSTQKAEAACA

Series 1 — organism: Sarcocystis neurona; observed: parasite growth; concentration: 10 µM; notes: first screen; relative to: untreated
`CC(C)[N+](C)(CCOC(=O)C1c2ccccc2Oc2ccccc21)C(C)C.[Br-]` — result for “log2 fold change”: 0.26.
For `CN(CCO)CC(O)Cn1cnc2c1c(=O)n(C)c(=O)n2C.O=C(O)c1cccnc1` (centres unmarked), “log2 fold change” read 0.11.
`Cc1onc(-c2ccccc2)c1C(=O)N[C@@H]1C(=O)N2[C@@H]1SC(C)(C)[C@@H]2C(=O)O` — result for “log2 fold change”: 0.31.
For `CN1C(=O)CC[C@H]1c1cccnc1`, “log2 fold change” read 0.13.

Series 2 — target: panel of 300 human kinases; concentration: 0.5 µM; reading: higher = more selective
The Gini score of `O=C1NC(=O)c2c1c1c3ccccc3[nH]c1n1cncc21` is reported as 0.52.
The Gini score of `COc1cc2ncnc(N3CCN(C(=O)Nc4ccc(Oc5ccccc5)cc4)CC3)c2cc1OC` is reported as 0.62.
The Gini score of `COc1cc2ncc(-c3ccccc3)nc2cc1OC` is reported as 0.53.
`COc1ccc(COc2ccc(Cc3cnc(N)nc3N)cc2OC)cc1` gave a Gini score of 0.75.

Series 3 — cell line: HaCaT; concentration: 100 µM; time: 18 h
With `C[C@H]1[C@@H](O)O[C@@H]2O[C@@]3(C)CC[C@H]4[C@H](C)CC[C@@H]1[C@@]24OO3` the viability was 62.3%.
The viability of `Cc1ccsc1C(=CCCN1CCC[C@@H](C(=O)O)C1)c1sccc1C` is reported as 118%.
`O=C1CN(/N=C/c2ccc(-c3ccc([N+](=O)[O-])cc3)o2)C(O)=N1` gave a viability of 100%.
`CCOC(CN1CCN(CC(C)C(=O)c2ccccc2)CC1)c1ccccc1` (centres unmarked) gave a viability of 81.6%.

Series 4 — observed: cell-free assay; method: competition with immobilised ligand; concentration: 1 µM
Structure (SMILES): CCCCN(CCCC)C(=O)CN1C[C@H](c2cc(OC)c3c(c2)OCO3)[C@@H](C(=O)O)[C@@H]1CC(C)(C)CCC
It gave 70% for remaining binding (Peripheral plasma membrane protein CASK (CASK, Homo sapiens, UniProt O14936)).
It gave 100% for remaining binding (Dual specificity protein kinase CLK4 (CLK4, Homo sapiens, UniProt Q9HAZ1)).
Serine/threonine-protein kinase TBK1 (TBK1, Homo sapiens, UniProt Q9UHD2) — remaining binding: 100%.
It gave 70.1% for remaining binding (Tyrosine-protein kinase ZAP-70 (ZAP70, Homo sapiens, UniProt P43403)).
It gave 100% for remaining binding (Ephrin type-B receptor 1 (EPHB1, Homo sapiens, UniProt P54762)).
The remaining binding was 100% (Serine/threonine-protein kinase Nek5 (NEK5, Homo sapiens, UniProt Q6P3R8)).
For Serine/threonine-protein kinase Nek9 (NEK9, Homo sapiens, UniProt Q8TD19): remaining binding read 100%.
Serine/threonine-protein kinase MRCK alpha (CDC42BPA, Homo sapiens, UniProt Q5VT25) — remaining binding: 100%.

Some of these lines once more (series 4):
It gave 100% for remaining binding (Ephrin type-B receptor 1 (EPHB1, Homo sapiens, UniProt P54762)).
It gave 100% for remaining binding (Dual specificity protein kinase CLK4 (CLK4, Homo sapiens, UniProt Q9HAZ1)).
Serine/threonine-protein kinase TBK1 (TBK1, Homo sapiens, UniProt Q9UHD2) — remaining binding: 100%.
